Published values of several laboratories.
Every numbered part comes from another study and shows a few of its results, in no order. Several values in a cell are separate wells, animals, samples, runs or records.
Chain of UniProt P15056 (whole entry, looked up): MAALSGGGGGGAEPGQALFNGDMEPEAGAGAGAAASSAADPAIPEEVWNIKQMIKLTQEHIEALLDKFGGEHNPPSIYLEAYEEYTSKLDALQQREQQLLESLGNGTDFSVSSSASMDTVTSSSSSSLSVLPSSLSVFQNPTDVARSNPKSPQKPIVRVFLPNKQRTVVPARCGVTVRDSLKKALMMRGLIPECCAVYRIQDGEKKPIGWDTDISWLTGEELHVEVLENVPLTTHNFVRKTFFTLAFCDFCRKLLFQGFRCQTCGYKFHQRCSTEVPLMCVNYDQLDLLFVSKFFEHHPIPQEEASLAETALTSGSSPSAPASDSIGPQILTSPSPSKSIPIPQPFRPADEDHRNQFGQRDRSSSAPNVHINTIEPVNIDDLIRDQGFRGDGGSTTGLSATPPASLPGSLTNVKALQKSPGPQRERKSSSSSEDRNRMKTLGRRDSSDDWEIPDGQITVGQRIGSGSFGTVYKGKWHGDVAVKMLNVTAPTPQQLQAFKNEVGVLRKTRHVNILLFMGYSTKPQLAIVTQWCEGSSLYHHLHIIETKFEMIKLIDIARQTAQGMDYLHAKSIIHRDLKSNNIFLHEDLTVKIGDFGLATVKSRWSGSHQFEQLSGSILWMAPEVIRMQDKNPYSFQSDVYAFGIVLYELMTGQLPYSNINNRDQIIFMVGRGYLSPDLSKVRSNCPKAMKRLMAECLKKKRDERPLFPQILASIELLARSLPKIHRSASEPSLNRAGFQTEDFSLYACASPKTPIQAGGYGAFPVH
Chain of UniProt Q59H18 (whole entry, looked up): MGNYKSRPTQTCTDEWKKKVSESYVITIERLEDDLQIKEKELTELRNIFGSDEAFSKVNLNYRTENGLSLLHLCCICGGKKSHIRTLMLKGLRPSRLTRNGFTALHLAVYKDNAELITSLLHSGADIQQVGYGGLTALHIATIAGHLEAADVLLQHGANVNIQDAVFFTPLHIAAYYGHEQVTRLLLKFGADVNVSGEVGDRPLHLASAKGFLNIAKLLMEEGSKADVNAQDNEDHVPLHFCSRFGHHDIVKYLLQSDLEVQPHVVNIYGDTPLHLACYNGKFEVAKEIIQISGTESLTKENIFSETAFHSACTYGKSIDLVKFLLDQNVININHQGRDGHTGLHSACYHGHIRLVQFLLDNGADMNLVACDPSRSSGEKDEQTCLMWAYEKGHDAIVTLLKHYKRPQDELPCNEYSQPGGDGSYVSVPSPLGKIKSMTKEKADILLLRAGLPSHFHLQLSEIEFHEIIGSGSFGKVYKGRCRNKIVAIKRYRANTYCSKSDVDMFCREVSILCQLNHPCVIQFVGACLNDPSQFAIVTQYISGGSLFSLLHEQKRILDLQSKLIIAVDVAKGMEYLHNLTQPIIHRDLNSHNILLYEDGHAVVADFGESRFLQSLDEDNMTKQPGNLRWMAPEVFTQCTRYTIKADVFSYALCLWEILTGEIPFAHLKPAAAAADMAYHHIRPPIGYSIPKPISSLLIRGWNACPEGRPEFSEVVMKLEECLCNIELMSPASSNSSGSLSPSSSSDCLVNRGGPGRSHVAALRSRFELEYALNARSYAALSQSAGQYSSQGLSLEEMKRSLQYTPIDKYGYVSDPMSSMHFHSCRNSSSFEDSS
Chain of UniProt P19784 (whole entry, looked up): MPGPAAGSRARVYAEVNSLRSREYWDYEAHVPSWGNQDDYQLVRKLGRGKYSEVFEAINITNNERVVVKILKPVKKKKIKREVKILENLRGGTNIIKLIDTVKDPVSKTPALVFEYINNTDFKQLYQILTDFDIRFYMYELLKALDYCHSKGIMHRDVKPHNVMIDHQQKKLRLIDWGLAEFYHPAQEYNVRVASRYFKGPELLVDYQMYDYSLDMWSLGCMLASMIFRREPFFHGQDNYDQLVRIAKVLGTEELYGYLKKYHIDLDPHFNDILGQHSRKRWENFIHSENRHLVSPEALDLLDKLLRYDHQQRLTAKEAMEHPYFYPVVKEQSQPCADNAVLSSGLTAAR
Chain of UniProt Q9UK32 (whole entry, looked up): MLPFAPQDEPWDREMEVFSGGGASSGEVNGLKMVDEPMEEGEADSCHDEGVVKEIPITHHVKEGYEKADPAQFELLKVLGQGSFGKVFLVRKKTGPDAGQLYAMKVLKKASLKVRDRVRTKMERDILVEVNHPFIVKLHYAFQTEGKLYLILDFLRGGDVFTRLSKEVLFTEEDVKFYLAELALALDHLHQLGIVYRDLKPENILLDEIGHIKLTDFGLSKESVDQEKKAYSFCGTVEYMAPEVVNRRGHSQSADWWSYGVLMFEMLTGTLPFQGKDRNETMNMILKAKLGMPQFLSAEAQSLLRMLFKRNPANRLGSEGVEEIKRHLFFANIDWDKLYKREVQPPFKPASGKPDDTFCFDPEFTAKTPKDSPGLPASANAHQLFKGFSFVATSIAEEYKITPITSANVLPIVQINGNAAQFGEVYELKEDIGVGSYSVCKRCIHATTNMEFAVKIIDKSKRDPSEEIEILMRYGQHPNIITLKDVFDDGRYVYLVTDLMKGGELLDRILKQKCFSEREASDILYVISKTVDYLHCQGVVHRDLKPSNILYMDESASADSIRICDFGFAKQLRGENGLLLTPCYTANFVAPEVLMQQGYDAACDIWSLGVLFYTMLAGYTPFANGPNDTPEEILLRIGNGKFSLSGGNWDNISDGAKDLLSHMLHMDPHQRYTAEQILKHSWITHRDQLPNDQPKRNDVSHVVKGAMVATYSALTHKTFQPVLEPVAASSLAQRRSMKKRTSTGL
Chain of UniProt P45985 (whole entry, looked up): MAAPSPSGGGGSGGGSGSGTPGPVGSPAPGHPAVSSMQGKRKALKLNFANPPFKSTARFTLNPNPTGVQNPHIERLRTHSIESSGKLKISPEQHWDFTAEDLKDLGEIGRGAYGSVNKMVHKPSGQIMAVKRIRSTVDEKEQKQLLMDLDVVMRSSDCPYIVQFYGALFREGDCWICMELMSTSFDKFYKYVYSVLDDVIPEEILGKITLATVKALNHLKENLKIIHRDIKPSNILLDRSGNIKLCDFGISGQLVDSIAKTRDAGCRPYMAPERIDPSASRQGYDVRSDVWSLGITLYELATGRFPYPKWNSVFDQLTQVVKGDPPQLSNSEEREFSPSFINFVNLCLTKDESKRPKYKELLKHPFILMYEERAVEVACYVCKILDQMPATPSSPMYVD
Chain of UniProt P54756 (whole entry, looked up): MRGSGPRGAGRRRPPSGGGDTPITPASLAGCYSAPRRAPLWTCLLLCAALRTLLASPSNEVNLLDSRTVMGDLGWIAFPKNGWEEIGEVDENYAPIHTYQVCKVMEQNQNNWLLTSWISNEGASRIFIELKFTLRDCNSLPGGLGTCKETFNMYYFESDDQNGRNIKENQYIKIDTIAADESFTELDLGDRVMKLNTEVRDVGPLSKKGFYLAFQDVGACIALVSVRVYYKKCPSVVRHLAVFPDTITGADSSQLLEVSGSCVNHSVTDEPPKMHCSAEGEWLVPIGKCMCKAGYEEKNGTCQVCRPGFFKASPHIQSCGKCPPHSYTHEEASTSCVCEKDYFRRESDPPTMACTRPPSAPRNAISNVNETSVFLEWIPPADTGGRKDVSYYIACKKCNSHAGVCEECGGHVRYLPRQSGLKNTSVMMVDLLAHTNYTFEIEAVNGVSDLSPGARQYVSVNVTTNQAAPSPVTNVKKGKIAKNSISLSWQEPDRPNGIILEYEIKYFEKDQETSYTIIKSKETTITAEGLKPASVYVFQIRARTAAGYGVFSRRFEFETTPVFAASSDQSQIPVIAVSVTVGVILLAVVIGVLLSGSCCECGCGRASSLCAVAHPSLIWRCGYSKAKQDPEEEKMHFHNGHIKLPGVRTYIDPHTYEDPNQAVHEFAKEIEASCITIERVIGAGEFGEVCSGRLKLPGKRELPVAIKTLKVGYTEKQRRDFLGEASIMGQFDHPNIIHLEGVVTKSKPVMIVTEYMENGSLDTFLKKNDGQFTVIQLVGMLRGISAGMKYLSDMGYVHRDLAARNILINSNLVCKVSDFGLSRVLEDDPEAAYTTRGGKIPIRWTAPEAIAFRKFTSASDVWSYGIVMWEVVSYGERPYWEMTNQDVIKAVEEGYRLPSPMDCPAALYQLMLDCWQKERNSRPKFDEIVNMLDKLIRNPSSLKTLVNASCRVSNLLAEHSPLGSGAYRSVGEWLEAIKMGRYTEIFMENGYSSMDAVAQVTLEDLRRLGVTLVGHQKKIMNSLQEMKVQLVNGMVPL
Chain of UniProt P49841 (whole entry, looked up): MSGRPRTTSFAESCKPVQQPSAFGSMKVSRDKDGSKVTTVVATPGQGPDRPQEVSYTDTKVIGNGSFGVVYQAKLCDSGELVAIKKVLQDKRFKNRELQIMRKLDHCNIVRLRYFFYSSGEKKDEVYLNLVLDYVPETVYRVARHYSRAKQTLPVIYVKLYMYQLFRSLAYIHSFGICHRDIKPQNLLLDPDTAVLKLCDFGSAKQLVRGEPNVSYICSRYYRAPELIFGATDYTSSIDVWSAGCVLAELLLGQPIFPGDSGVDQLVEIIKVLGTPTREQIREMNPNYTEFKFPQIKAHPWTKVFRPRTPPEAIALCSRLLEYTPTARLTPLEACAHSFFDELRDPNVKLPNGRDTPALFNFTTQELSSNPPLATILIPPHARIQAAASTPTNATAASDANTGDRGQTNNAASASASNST

Set 1
Target: Tyrosine-protein kinase ZAP-70 (ZAP70, Homo sapiens, UniProt P43403)
Observed: enzyme activity
Action: inhibitor
Concentration: 0.5 µM
Relative to: control
Residues (P43403 1-619): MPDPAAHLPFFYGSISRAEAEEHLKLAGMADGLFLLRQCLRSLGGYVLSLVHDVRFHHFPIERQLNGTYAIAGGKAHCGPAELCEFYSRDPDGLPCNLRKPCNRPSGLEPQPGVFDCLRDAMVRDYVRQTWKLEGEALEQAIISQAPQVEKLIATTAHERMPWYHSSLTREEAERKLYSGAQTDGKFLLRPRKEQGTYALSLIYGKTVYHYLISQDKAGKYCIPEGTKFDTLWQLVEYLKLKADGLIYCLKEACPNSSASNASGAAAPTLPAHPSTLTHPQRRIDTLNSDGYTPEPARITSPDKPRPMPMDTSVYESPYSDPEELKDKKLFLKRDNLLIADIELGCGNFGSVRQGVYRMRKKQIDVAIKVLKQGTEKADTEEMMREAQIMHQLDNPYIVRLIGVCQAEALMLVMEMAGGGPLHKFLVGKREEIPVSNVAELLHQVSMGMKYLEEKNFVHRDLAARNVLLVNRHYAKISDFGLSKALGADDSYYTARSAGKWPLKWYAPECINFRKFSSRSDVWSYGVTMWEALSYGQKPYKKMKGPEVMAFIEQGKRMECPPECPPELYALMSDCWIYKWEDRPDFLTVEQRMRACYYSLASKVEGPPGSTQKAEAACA
The remaining activity of `Cc1ccc(S(=O)(=O)/C=C/C#N)cc1` is reported as 97.5%.
`O=C1NC(=O)c2c1c1c3ccccc3[nH]c1c1[nH]c3cc(Br)ccc3c21` gave a remaining activity of 104%.
For `O=C1NC(=O)c2c1c1c3ccccc3[nH]c1n1cncc21`, the remaining activity was 87.8%.
`O=C1Nc2ccccc2/C1=C\c1c(Cl)[nH]c2ccccc12` has a remaining activity of 106%.
For `O=c1cc(N2CCOCC2)oc2c(-c3ccccc3)cccc12`, the remaining activity was 102%.
The remaining activity of `c1ccc(-c2n[nH]c3c2oc2ccccc23)cc1` is reported as 89%.
The remaining activity of `COc1cccc(-c2cc(=O)c3ccccc3o2)c1N` is reported as 107%.
`N#Cc1cnc2cnc(NCc3cccnc3)cc2c1Nc1ccc(F)c(Cl)c1` gave a remaining activity of 103%.
For `O=C(c1cc2cc(O)ccc2[nH]1)c1cc2cc(O)ccc2[nH]1`, the remaining activity was 101%.
`CN1CCN(c2ccc3nc(-c4c(N)c5c(F)cccc5[nH]c4=O)[nH]c3c2)CC1` has a remaining activity of 107%.

Set 2
Organism: Sarcocystis neurona
Observed: parasite activity
Concentration: 10 µM
Time: 96 h
Under activity class, `CCC(=O)NS(=O)(=O)c1ccc(-c2c(-c3ccccc3)noc2C)cc1` is recorded as “inactive”.
`CCCC(=O)Nc1ccc(OCC(O)CNC(C)C)c(C(C)=O)c1` (stereo not drawn) — result for activity class: “inactive”.
`OCCN1CCN(CCCN2c3ccccc3Sc3ccc(Cl)cc32)CC1` — result for activity class: “active”.
`O=C(O)COCCN1CCN(C(c2ccccc2)c2ccc(Cl)cc2)CC1` (stereo not drawn): activity class “inactive”.
`Cn1cc[nH]c1=S`: activity class “inactive”.
Under activity class, `COC1=C(OC)C(=O)C(CCCCCCCCCCO)=C(C)C1=O` is recorded as “inactive”.
`CN(C/C=C/C#CC(C)(C)C)Cc1cccc2ccccc12` — result for activity class: “inactive”.
`C=C(CC)C(=O)c1ccc(OCC(=O)O)c(Cl)c1Cl` — result for activity class: “inactive”.

Set 3
Structure (SMILES): CNC(=O)c1ccc(Nc2ncc(C(F)(F)F)c(NCc3nccnc3N(C)S(C)(=O)=O)n2)cc1
Method: competition with immobilised ligand
Concentration: 0.1 µM
For ALK tyrosine kinase receptor (ALK, Homo sapiens, UniProt Q9UM73); cell-free assay: remaining binding read 58%.
The remaining binding was 100% (Activin receptor type-1 (ACVR1, Homo sapiens, UniProt Q04771); cell-free assay).
Glycogen synthase kinase-3 beta (GSK3B, Homo sapiens, UniProt P49841); cell-free assay — remaining binding: 87%.
Ephrin type-A receptor 5 (EPHA5, Homo sapiens, UniProt P54756); cell-free assay — remaining binding: 64%.
The remaining binding was 50% (Serine/threonine-protein kinase TAO1 (TAOK1, Homo sapiens, UniProt Q7L7X3); cell-free assay).
For Casein kinase II subunit alpha' (CSNK2A2, Homo sapiens, UniProt P19784); cell-free assay: remaining binding read 28%.
Ribosomal protein S6 kinase alpha-6, C-terminal kinase domain (RPS6KA6, Homo sapiens, UniProt Q9UK32); cell-free assay — remaining binding: 49%.
For Activin receptor type-1-like (ACVRL1, Homo sapiens, UniProt P37023); cell-free assay: remaining binding read 100%.
For Tyrosine-protein kinase ABL1, phosphorylated (ABL1, Homo sapiens, UniProt P00519, M351T); cell-free assay: remaining binding read 100%.
The remaining binding was 100% (Tyrosine-protein kinase ABL1, non-phosphorylated (ABL1, Homo sapiens, UniProt P00519, F317I); binding).
It gave 71% for remaining binding (Dual specificity mitogen-activated protein kinase kinase 4 (MAP2K4, Homo sapiens, UniProt P45985); cell-free assay).
The remaining binding was 100% (Serine/threonine-protein kinase B-raf (BRAF, Homo sapiens, UniProt P15056); cell-free assay).
Serine/threonine-protein kinase TNNI3K (TNNI3K, Homo sapiens, UniProt Q59H18); cell-free assay — remaining binding: 100%.

Set 4
Cell line: mouse MPNST tumor cells
Method: high-content nuclear imaging
Item: cell number
Concentration: 10 µM
Time: 12 h
Setting: mean of 2 replicates
Relative to: plate mean
Direction: higher = more cells
With `CCOc1cc2ncc(C#N)c(Nc3ccc(OCc4cccc(F)c4)c(Cl)c3)c2cc1NC(=O)/C=C/CN(C)C` the nuclei count was 2.6 z-score.
For `C[C@H](Cc1cc2c(c(C(N)=O)c1)N(CCCO)CC2)NCCOc1ccccc1OCC(F)(F)F`, the nuclei count was 0.711 z-score and 0.4 z-score.
The nuclei count of `CC(C)NC(=N)NC(=N)Nc1ccc(Cl)cc1` is reported as 1.81 z-score and 0.89 z-score.
For `COc1ccc(S(=O)(=O)N2C(=O)[C@@](c3ccccc3OC)(N3C[C@H](O)C[C@H]3C(=O)N(C)C)c3cc(Cl)ccc32)c(OC)c1`, the nuclei count was 1.63 z-score.
`Oc1cccc(Nc2ccnc3cc(-c4cccc(CN5CCOCC5)c4)sc23)c1` has a nuclei count of -6.13 z-score.
`O=C(Nc1ccc(Oc2ccc(Cl)cn2)c(Cl)c1)c1ccccn1` has a nuclei count of 1.16 z-score.
For `Cc1cccc(-c2[nH]ncc2-c2ccc3ncccc3n2)n1`, the nuclei count was 0.913 z-score.
`CCCOc1ccc(Br)cc1-c1cc(-c2ccc(Cl)cc2)[nH]c1-c1ccncc1` has a nuclei count of -0.081 z-score.

For quick reference, copied from above (set 3):
Glycogen synthase kinase-3 beta (GSK3B, Homo sapiens, UniProt P49841); cell-free assay — remaining binding: 87%.
Ephrin type-A receptor 5 (EPHA5, Homo sapiens, UniProt P54756); cell-free assay — remaining binding: 64%.
The remaining binding was 50% (Serine/threonine-protein kinase TAO1 (TAOK1, Homo sapiens, UniProt Q7L7X3); cell-free assay).
